Measurements from different studies.
Each numbered part is a random draw from the data of one study; scales do not carry over between parts.
UniProt P35968, sequence (whole entry, looked up): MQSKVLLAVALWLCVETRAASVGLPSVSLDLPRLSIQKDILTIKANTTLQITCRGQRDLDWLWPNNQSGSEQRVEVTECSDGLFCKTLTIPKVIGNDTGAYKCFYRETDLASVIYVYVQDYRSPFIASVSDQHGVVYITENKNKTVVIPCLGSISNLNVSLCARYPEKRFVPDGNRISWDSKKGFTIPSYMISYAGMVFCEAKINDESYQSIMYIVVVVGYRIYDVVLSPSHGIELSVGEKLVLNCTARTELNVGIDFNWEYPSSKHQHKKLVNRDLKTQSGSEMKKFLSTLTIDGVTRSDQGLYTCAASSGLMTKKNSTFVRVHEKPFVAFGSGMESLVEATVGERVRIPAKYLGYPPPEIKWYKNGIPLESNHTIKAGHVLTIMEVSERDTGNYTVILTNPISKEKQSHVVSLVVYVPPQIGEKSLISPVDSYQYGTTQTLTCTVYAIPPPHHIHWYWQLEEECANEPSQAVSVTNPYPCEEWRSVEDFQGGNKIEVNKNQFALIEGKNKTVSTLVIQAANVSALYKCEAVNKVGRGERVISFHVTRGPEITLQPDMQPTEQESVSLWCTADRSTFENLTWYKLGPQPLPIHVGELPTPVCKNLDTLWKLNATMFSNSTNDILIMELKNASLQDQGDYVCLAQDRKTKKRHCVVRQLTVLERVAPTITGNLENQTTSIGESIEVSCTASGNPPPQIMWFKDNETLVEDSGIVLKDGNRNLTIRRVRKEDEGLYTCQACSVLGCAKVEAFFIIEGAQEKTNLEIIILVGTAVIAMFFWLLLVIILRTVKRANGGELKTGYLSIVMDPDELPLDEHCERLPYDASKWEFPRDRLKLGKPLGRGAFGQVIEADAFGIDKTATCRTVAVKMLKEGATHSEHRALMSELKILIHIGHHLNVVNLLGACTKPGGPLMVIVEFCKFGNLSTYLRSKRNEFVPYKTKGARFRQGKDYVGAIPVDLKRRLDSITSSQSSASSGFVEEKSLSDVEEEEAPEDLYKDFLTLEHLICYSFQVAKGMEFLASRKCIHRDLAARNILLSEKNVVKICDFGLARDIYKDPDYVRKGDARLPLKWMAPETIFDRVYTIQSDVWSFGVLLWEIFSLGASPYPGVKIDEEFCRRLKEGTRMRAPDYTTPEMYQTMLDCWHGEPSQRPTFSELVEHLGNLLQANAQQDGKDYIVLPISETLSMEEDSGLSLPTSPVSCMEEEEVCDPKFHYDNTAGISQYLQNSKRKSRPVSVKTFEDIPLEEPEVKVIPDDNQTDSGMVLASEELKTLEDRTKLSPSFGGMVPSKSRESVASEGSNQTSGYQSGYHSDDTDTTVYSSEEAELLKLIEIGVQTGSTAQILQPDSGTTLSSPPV
UniProt Q8N568, sequence (whole entry, looked up): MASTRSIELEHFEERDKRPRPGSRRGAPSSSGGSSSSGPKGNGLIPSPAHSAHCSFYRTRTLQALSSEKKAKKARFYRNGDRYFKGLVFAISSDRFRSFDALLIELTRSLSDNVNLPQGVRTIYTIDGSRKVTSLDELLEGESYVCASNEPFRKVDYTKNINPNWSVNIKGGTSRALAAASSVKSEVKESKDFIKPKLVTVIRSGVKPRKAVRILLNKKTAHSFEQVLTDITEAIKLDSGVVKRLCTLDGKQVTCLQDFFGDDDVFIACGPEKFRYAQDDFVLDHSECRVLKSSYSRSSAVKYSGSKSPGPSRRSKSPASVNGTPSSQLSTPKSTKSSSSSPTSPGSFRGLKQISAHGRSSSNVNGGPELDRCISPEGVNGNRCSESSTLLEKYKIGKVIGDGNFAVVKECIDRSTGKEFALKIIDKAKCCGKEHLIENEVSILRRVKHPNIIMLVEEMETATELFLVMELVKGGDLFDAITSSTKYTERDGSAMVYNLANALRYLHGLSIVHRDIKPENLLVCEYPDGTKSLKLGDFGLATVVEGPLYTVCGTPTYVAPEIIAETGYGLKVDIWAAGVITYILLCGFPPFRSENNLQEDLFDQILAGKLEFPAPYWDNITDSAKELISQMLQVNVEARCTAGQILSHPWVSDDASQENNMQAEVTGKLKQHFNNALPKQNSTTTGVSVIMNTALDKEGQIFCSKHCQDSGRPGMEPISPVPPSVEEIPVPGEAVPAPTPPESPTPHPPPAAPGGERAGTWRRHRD
UniProt P28482, sequence (whole entry, looked up): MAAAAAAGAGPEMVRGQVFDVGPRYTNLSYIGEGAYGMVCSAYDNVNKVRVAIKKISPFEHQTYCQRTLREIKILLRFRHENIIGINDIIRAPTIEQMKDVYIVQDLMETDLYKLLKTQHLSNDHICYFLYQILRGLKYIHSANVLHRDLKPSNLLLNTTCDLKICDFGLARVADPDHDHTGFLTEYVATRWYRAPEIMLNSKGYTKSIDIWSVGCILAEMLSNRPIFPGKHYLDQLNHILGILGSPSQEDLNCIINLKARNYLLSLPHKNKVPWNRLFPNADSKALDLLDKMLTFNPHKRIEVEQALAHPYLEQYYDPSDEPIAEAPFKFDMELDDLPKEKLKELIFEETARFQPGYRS
UniProt Q8WTQ7, sequence (whole entry, looked up): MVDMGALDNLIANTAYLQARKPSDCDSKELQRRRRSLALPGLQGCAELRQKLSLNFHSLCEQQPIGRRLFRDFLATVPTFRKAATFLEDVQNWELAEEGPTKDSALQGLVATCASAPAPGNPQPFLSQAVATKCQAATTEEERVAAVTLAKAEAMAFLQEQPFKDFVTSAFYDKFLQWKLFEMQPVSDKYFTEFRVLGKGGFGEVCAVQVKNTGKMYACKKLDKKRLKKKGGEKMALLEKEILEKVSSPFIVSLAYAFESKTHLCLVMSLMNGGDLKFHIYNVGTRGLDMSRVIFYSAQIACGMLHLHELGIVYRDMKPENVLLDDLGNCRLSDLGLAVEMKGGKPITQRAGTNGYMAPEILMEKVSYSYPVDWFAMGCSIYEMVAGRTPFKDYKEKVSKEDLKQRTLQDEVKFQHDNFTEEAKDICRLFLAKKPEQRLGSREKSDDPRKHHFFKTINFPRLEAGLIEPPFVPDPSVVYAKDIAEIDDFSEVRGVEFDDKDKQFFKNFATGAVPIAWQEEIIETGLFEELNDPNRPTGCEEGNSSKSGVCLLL
UniProt P51956, sequence (whole entry, looked up): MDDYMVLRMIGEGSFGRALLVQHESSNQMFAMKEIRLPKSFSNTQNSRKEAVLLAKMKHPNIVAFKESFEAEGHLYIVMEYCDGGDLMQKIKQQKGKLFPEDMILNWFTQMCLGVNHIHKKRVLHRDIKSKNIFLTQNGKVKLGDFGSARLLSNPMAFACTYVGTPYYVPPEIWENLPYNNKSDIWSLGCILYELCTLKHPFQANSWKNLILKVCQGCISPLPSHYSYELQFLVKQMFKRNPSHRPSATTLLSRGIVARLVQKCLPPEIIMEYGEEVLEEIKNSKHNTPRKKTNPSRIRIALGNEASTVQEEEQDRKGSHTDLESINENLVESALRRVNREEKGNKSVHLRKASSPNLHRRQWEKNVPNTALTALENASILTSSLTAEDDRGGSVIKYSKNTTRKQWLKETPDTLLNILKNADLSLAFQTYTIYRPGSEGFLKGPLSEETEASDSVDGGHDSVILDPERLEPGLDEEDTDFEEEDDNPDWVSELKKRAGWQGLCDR
UniProt P50750, sequence (whole entry, looked up): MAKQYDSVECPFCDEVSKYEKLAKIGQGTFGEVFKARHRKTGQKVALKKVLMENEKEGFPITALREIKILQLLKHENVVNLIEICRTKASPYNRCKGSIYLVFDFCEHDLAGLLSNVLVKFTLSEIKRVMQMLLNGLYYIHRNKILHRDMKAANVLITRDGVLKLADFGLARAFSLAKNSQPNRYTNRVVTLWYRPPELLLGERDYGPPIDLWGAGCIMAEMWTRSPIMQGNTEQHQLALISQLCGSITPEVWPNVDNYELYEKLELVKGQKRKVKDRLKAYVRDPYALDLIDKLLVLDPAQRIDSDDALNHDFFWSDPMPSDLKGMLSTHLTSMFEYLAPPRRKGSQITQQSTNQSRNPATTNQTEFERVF

Study 1 — Structure (SMILES): O=C1NC(=O)/C(=C/c2ccc3nccnc3c2)S1; read-out: enzyme activity; action: inhibitor; tested at: 0.5 µM; relative to: control
target | remaining activity [%]
CLK3 (Homo sapiens, UniProt P49761) | 80.8
DCLK2 (Homo sapiens, UniProt Q8N568) | 94.3
MAP2K1 (Homo sapiens, UniProt Q02750) | 89.5
Cyclin-dependent kinase 9, with cyclin K (CDK9, Homo sapiens, UniProt P50750) | 86
DDR2 (Homo sapiens, UniProt Q16832) | 93.4
NEK3 (Homo sapiens, UniProt P51956) | 97.3
ROCK1 (Homo sapiens, UniProt Q13464) | 94
CDC42BPB (Homo sapiens, UniProt Q9Y5S2) | 91.3
MAPK1 (Homo sapiens, UniProt P28482) | 85.2
MARK4 (Homo sapiens, UniProt Q96L34) | 89.9
MINK1 (Homo sapiens, UniProt Q8N4C8) | 88.3
PLK3 (Homo sapiens, UniProt Q9H4B4) | 97.7
GRK4 (Homo sapiens, UniProt P32298) | 106
MET (Homo sapiens, UniProt P08581) | 91.2
KDR (Homo sapiens, UniProt P35968) | 92.6

Study 2 — read-out: cell-free assay; method: competition with immobilised ligand; tested at: 0.1 µM
SMILES: CCOC(=O)c1cc2cc(-c3cc(C(=O)NCc4ccc(C(=O)O)cc4)nn3C)ccc2[nH]1
target | remaining binding [%]
MAP4K4 (Homo sapiens, UniProt O95819) | 95
MET (Homo sapiens, UniProt P08581, Y1235D) | 86
GRK7 (Homo sapiens, UniProt Q8WTQ7) | 86
MET (Homo sapiens, UniProt P08581) | 96
CSNK2A1 (Homo sapiens, UniProt P68400) | 81
eIF-2-alpha kinase GCN2, C-terminal kinase domain (EIF2AK4, Homo sapiens, UniProt Q9P2K8, S808G) | 100

Study 3 — action: degrader; method: HiBiT; cell line: HEK293; tested at: 4.572 nM
Target: CRBN/Zinc finger protein Helios (Homo sapiens, UniProt Q96SW2+Q9UKS7)
UniProt Q9UKS7, sequence (whole entry, looked up): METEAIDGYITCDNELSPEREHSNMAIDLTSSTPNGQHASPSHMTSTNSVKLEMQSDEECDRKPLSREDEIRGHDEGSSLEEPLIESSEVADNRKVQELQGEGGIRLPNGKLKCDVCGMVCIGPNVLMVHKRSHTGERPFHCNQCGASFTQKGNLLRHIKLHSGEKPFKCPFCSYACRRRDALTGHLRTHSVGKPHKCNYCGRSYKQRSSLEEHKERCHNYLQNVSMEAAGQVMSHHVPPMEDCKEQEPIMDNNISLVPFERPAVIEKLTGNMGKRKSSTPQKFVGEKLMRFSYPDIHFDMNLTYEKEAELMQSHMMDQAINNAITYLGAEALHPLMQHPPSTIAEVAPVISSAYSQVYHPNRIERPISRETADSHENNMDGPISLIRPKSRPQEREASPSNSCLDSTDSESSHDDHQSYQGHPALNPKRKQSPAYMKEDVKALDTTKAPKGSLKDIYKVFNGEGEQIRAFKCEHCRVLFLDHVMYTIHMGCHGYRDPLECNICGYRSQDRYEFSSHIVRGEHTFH
UniProt Q96SW2, sequence (whole entry, looked up): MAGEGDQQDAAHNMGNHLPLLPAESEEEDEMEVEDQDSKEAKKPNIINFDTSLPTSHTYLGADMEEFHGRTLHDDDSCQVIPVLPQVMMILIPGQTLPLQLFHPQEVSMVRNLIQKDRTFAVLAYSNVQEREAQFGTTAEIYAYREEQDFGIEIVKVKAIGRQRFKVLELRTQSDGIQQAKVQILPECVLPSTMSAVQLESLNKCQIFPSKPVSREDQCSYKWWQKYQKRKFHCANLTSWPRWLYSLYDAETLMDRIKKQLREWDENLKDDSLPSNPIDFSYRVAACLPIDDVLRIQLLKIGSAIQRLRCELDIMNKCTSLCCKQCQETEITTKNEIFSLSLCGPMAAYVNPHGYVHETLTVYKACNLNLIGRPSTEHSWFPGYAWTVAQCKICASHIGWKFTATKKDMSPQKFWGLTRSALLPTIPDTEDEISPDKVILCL
SMILES | protein remaining
O=C1CCC(N2Cc3c(ccc4c3OCC43CCC(Oc4ccccc4)CC3)C2=O)C(=O)N1 (stereo not shown) | 94.6%
O=C1CCC(N2Cc3c(ccc4c3OCCC43CCN(Cc4ccccc4)CC3)C2=O)C(=O)N1 (stereo not shown) | 80.5%
O=C1CCC(N2Cc3c(ccc4c3OCC43CCC(Cc4ccccc4)CC3)C2=O)C(=O)N1 (stereo not shown) | 104%

Study 4 — cell line: mouse MPNST tumor cells; method: high-content nuclear imaging; measured: cell number; tested at: 10 µM; time: 12 h; notes: mean of 2 replicates; relative to: plate mean; direction: higher = more cells
SMILES | nuclei count [z-score]
Cc1ccc(-n2sc(=O)n(Cc3ccc(F)cc3)c2=O)cc1 | 0.464
COc1cc2c(cc1OC)CC(=O)N(CCCN(C)C[C@H]1Cc3cc(OC)c(OC)cc31)CC2 | 0.0637
CC(C)(C)c1cc(C(=O)C=Cc2ccc(C(=O)O)cc2)cc(C(C)(C)C)c1 | -3.29
CC(N)CCCC(C)(C)O (stereo not shown) | -0.274
c1ccc(C(O[C@@H]2CCCN(CCc3ccc4c(c3)OCO4)C2)c2ccccc2)cc1 | 1.52
O=C(O)CCC(=O)c1ccc(-c2ccccc2)cc1 | -0.131
OC[C@H](Cc1ccccc1)Nc1nc(Oc2ccc3c(c2)CCC3)nc2c1ncn2Cc1ccc(-c2ccccc2)cc1 | 3.61

Excerpt of the above (study 1):
target | remaining activity [%]
GRK4 (Homo sapiens, UniProt P32298) | 106
ROCK1 (Homo sapiens, UniProt Q13464) | 94
CLK3 (Homo sapiens, UniProt P49761) | 80.8
NEK3 (Homo sapiens, UniProt P51956) | 97.3
